Published values gathered from unrelated publications.
Compare with care: the assays were run in different laboratories. “And” joins repeats or separate records; there may be more than shown. ± marks the error that the study gave.

With `CC(C)C[C@@H]1NC(=O)[C@H](C(C)C)NC(=O)[C@@H]2CCCN2C(=O)[C@H](C(C)C)NC(=O)[C@H](Cc2ccccc2)NC(=O)CSCCNC(=O)[C@H](Cc2ccccc2)N(C)C(=O)[C@H](CC(C)C)NC(=O)[C@H](Cc2cccc3ccccc23)NC1=O` the Papp A→B was 0.01 ×10⁻⁶ cm/s (LLC-PK1; Caco-2).
For `CC(=O)NCC(=O)N[C@@H](CCCNC(=N)N)C(=O)N[C@@H](CCCCN)C(=O)N[C@@H](CCCCN)C(=O)N[C@@H](CCCNC(=N)N)C(=O)N[C@@H](CCCNC(=N)N)C(=O)N[C@@H](CCC(N)=O)C(=O)N[C@@H](CCCNC(=N)N)C(=O)N[C@@H](CCCNC(=N)N)C(=O)N[C@@H](CCCNC(=N)N)C(=O)N1CCC[C@H]1C(=O)N[C@@H](CCC(N)=O)C(N)=O`, the peptide concentration was 228 pmol/mg protein and 224 pmol/mg protein and 234 pmol/mg protein (HEK293T cells; LC-MS; cytoplasmic fraction; 20 µM, 24 h).
`C#Cc1ccc(C[C@H]2C(=O)N[C@@H](CC(C)C)C(=O)N(C)[C@@H](CC(C)C)C(=O)NCC(=O)N3CCC[C@@H]3C(=O)N(C)[C@@H](Cc3ccccc3)C(=O)N[C@@H](CC(C)C)C(=O)N(C)[C@@H](C)C(=O)N[C@@H](CC(C)C)C(=O)N3CCC[C@@H]3C(=O)N2C)cc1` gave a Papp A→B of 6.84 ×10⁻⁶ cm/s (LLC-PK1; Caco-2).
The Papp A-B of `Cc1cc(-c2ccc3ccccc3c2)nnc1NCCN1CCN(C)CC1` is reported as 18.9 ×10⁻⁶ cm/s (Caco-2; 5 µM, 0.5 h).
The viability of `C[C@@H]1O[C@@H](O[C@@H]2[C@@H](O)[C@H](O)[C@@H](CO)O[C@H]2c2c(O)cc(O)c3c(=O)cc(-c4ccc(O)cc4)oc23)[C@H](O)[C@H](O)[C@H]1O` is reported as 105% (Caco-2; CCK-8; 0.625 µM, 24 h).
`N=C(N)NCCC[C@H](NC(=O)[C@H](CCCNC(=N)N)NC(=O)[C@H](CCCNC(=N)N)NC(=O)[C@H](CCC(N)=O)NC(=O)[C@H](CCCNC(=N)N)NC(=O)[C@H](CCCNC(=N)N)NC(=O)[C@H](CCCCN)NC(=O)[C@H](CCCCN)NC(=O)[C@H](CCCNC(=N)N)NC(=O)CNC(=O)[C@H](Cc1ccc(O)cc1)NC(=O)[C@H](Cc1ccccc1)NC(=O)[C@H](Cc1ccccc1)NC(=O)[C@H](Cc1ccccc1)NC(=O)Cc1ccc2ccccc2c1)C(=O)O` gave an HC10 of > 64 µM (human red blood cells; hemolysis; minimum concentration causing 10% hemolysis).
The hemolysis of `CN(C)CCCNC(=O)[C@@H]1NC(=O)[C@@H]2Cc3ccc(cc3)Oc3cc4cc(c3O)-c3ccc5c(c[nH]c5c3)C[C@@H](NC(=O)C(NC(=O)CCCCCN)c3ccc(O)cc3)C(=O)N[C@H](c3ccc(O)cc3)C(=O)N[C@H]4C(=O)N[C@@H](C(=O)N2C)c2ccc(cc2)Oc2cc1ccc2O` (some centres unmarked) is reported as 2.84% (human red blood cells; PBS; 8 µg/mL, 1 h, pH 7.4, 37 °C).
`CNC(=O)C[C@H](Cc1ccc(F)cc1)NC(=O)[C@@H](Cc1ccc(Cl)cc1Cl)NC(=O)[C@H](N)Cc1ccccc1C#N` has a viability of 0.964 and 0.996 and 1.06 (Huh-7-ACE2; CellTiter-Glo; 0.781 µM, 48 h, unit not given; baseline: DMSO).
`COc1ccccc1CCNC1CCCc2c1[nH]c1ccc(C)cc21` (centres unmarked) has a non-viable cells of 70.3 ± 6% (A549; 50 µM, 23 h).
`CNC(=O)CC1CN(C(=O)c2ccc(C(F)(F)F)cn2)CCN1C(=O)c1cccnn1` (centres unmarked) gave a viability of 1.06 and 0.99 and 0.813 (Huh-7-ACE2; CellTiter-Glo; 12.5 µM, 48 h, unit not given; baseline: DMSO).
For `c1ccc(CCNC2CCCc3c2[nH]c2ccc(C4CCCCC4)cc32)cc1` (centres unmarked), the non-viable cells was 79.4 ± 16.4% (A549; 50 µM, 23 h).
For `Nc1nc2ccc(Oc3ccc4nc(N)sc4c3)cc2s1`, the cell death was ~80% (A549; XTT; 500 µM, 20 h, 10% FBS).
With `NCCCC[C@@H](CC(N)=O)NC(=O)C[C@H](Cc1ccccc1)NC(=O)[C@H]1CCCC[C@@H]1NC(=O)C[C@H](CCCCN)NC(=O)C[C@H](Cc1ccccc1)NC(=O)[C@H]1CCCC[C@@H]1NC(=O)C[C@H](CCCCN)NC(=O)C[C@H](Cc1ccccc1)NC(=O)[C@H]1CCCC[C@@H]1N` the hemolysis was 36.3 ± 5.97% (human red blood cells; antifungal MIC, 1 h, pH 7.5; baseline: melittin).
`C#Cc1ccc(C[C@H]2C(=O)N[C@@H](CC(C)C)C(=O)N(C)[C@@H](C)C(=O)N[C@@H](CC(C)C)C(=O)N(C)[C@H](CC(C)C)C(=O)N(C)[C@@H](Cc3ccccc3)C(=O)N[C@@H](CC(C)C)C(=O)N(C)[C@@H](C)C(=O)N[C@@H](CC(C)C)C(=O)N(C)[C@H](CC(C)C)C(=O)N2C)cc1` gave a Papp A→B of 0.02 ×10⁻⁶ cm/s (LLC-PK1; Caco-2).
`COc1cc(OC)cc([C@@H]2c3cc(/C=C/c4cc(O)cc(O)c4)ccc3O[C@H]2c2ccc(O)cc2)c1` has a CC50 of 38.1 µM (Calu-3; 24 (unit not given)).
`COc1ccc(-c2cnc3c(C#Cc4cccnc4)snc3c2)cc1OC` has a CC90 of > 10 µM (human cells; 48 (unit not given)).
With `CNC(=O)CC[C@H](Cc1ccccc1)NC(=O)[C@@H](Cc1ccc(Cl)cc1Cl)NC(=O)[C@H](N)Cc1ccccc1[N+](=O)[O-]` the viability was 0.939 and 1.1 and 0.956 (Huh-7-ACE2; CellTiter-Glo; 0.0122 µM, 48 h, unit not given; baseline: DMSO).
Under “cellular iridium uptake”, `S=c1n(-c2ccccc2)c2c3ccccc3nc3[n+]2[n]1[Ir-3]12([S]3)([c]3cccc4ccc5ccc[n+]1c5c34)[c]1cccc3ccc4ccc[n+]2c4c13` is recorded as 5.57 ± 0.95 fmol/cell (A549; ICP-MS; 10 µM, 24 h, 37 °C).
For `C/C=C(/C)C(=O)OC[C@H]1[C@@H](Cc2ccc(C(C)(C)C)cc2)CO[C@@H]1c1ccc(F)cc1`, the LDH release was 41.4 ± 3.7% (rat aortic VSMCs; 30 µM, 24.5 h).
`c1ccc(CCNC2CCCc3c2[nH]c2ccc(-c4ccccc4)cc32)cc1` (centres unmarked) gave a non-viable cells of 84.2 ± 10.5% (A549; 50 µM, 23 h).
Under “lowest hemolytic concentration”, `CC(C)C[C@H](NC(=O)[C@H](CCCNC(=N)N)NC(=O)[C@@H](N)Cc1c[nH]c2ccccc12)C(=O)N[C@@H](Cc1c[nH]c2ccccc12)C(=O)N[C@@H](Cc1c[nH]c2ccccc12)C(=O)N[C@@H](Cc1c[nH]c2ccccc12)C(=O)N[C@@H](CCCNC(=N)N)C(=O)N[C@@H](CCCNC(=N)N)C(=O)N[C@@H](Cc1c[nH]c2ccccc12)C(=O)O` is recorded as > 256 µg/mL (human red blood cells; 1 h, 37 °C, 10% hemolysis).
The TC50 of `c1ccc(Nc2ncnc3ccc(-c4cccc(N5CCOCC5)c4)cc23)cc1` is reported as 8.4 µM (NIH 3T3; PrestoBlue; 96 h).
For `CNC(=O)C[C@H](Cc1ccncc1)NC(=O)[C@@H](Cc1cccc(Br)c1)NC(=O)[C@@H](N)Cc1cccc(F)c1`, the viability was 0.982 and 1.06 and 1.03 (Huh-7-ACE2; CellTiter-Glo; 0.781 µM, 48 h, unit not given; baseline: DMSO).
`N=C(N)NCCC[C@H](NC(=O)[C@H](CCCNC(=N)N)NC(=O)[C@H](CCCNC(=N)N)NC(=O)[C@H](CCC(N)=O)NC(=O)[C@H](CCCNC(=N)N)NC(=O)[C@H](CCCNC(=N)N)NC(=O)[C@H](CCCCN)NC(=O)[C@H](CCCCN)NC(=O)[C@H](CCCNC(=N)N)NC(=O)CNC(=O)[C@H](Cc1ccc(O)cc1)NC(=O)[C@H](Cc1ccccc1)NC(=O)[C@H](Cc1ccccc1)NC(=O)[C@H](Cc1ccccc1)NC(=O)OCC1c2ccccc2-c2ccccc21)C(=O)O` — result for cellular internalization: “decreased” (RAW264.7; flow cytometry; FITC-labelled compound; baseline: control).
For `CC1OCC2OC(OC3C(N)CC(N)C(O)C3OC3OC(CO)C(OC4OC(CN)C(O)C(O)C4N)C3O)C(N)C(O)C2O1` (centres unmarked), “25% lethal concentration” read > 1200 µM (NIH 3T3; 72 h, 10% fetal bovine serum).
`O=C(c1ccc(-c2ccc3ncnc(Nc4ccc(OCc5cccc(F)c5)c(Cl)c4)c3c2)cc1)N1CCOCC1` has a TC50 of 0.81 µM (NIH 3T3; PrestoBlue; 96 h).
With `CC(=O)O[C@H]1OC[C@@H]2C=C([C@@]3(C)CCCC(C)(C)C3)CC[C@H]12` the viability decrease was 15 to 25% (primary human T lymphocytes; MTT; 0.1 µM, 48 h, 10% FBS).
For `CCOc1ccc(CN2CC[C@H]2C(=O)NC)cc1-c1cccc(C(=O)NC[C@@H]2COC(C)(C)O2)c1`, the viability was 0.846 and 0.862 and 0.918 (Huh-7-ACE2; CellTiter-Glo; 3.125 µM, 48 h, unit not given; baseline: DMSO).
For `O=C(c1cccc(-c2ccc3ncnc(Nc4ccc(OCc5cccc(F)c5)c(Cl)c4)c3c2)c1)N1CCOCC1`, the TC50 was 5.1 µM (NIH 3T3; PrestoBlue; 96 h).
